Published values pooled from the literature.
Numbered parts are unrelated; each lists some results of a single study. Substitutions count along the parent as printed.

Study 1
Target: Histone acetyltransferase KAT6A, both winged helices, GST fusion (KAT6A, Homo sapiens, UniProt Q92794, residues 1-181)
Method: protein binding microarray
Molecule type: double-stranded DNA, one strand shown
Matrix: in vitro
Concentration: not given
Notes: 8-mer, flanks averaged, mean of 2 arrays, mostly near background
Relative to: not given
Reading: higher = stronger binding
Residues (chain): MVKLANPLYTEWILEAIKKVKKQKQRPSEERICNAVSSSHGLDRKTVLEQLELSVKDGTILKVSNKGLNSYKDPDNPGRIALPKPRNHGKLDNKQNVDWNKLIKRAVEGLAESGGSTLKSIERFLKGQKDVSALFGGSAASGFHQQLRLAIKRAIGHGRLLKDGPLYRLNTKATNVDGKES
| Strand | E-score |
| --- | --- |
| AGAAAGAG | -0.176 |
| CCACCGCG | 0.258 |
| ACCGAGAA | 0.104 |
| GCACCTTA | 0.0611 |
| GACTTTCA | -0.0641 |
| ACACTATA | -0.0541 |
| AGACCCGC | 0.23 |
| TACCCTCA | -0.155 |
| ACGCATTC | 0.194 |
| ATGTGAAG | -0.124 |
| CTAGAGGC | -0.00526 |
| ACCGGCGG | 0.335 |
| AAGGGCGT | 0.166 |
| CGAAGACG | 0.113 |
| GTCGCTCA | 0.0493 |
| GTGGTCTA | -0.129 |
| AGCCGTAG | 0.138 |
| ATTAATGC | 0.0274 |
| GTGTAATA | -0.074 |
| CATGTGAC | -0.189 |
| CGGTGAGC | 0.0741 |
| AACCCTTC | -0.0887 |
| CCGATCTA | -0.0132 |
| CATTATTA | -0.0213 |
| CCTCTTAG | -0.163 |

Study 2
Target: Interferon regulatory factor 7, full length, phosphomimetic (IRF7, Homo sapiens, UniProt Q92985, residues 1-503, S471D/S472D/S475D/S476D/S477D/S483D/S484D/S487D)
Method: protein-binding microarray
Molecule type: double-stranded DNA, one strand shown
Matrix: in vitro
Concentration: 2200 nM top
Notes: 60-bp whole probe
Together with: salmon DNA 0.4 mg/ml
Relative to: random background probes
Reading: higher = stronger binding
Constant ends, left off below: GCCTAGCAC … GTCTTGATTCGCTTGACGCTGCTG
Construct (chain): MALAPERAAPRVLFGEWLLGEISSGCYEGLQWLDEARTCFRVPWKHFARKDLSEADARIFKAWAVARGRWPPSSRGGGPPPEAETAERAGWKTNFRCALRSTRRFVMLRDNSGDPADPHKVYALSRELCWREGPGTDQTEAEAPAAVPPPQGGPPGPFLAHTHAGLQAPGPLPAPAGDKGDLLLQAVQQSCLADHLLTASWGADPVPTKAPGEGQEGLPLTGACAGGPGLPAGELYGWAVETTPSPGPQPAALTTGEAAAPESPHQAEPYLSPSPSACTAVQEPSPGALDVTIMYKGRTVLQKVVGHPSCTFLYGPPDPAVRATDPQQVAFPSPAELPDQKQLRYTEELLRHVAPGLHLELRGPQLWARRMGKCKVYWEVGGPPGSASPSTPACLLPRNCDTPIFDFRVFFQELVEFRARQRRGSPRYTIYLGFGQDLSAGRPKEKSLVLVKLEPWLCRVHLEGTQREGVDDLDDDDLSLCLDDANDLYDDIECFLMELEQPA
| Strand | fitted relative affinity [z-score] |
| --- | --- |
| TCAATGGTCCTGGTTTCAACTGTGCTA | 1.01 |
| TTAGGTCTCGGAGTGGGTTAGTGCTAG | -0.296 |
| TCATGCTCATTTTTCAGACTGTGCTAG | 1.28 |
| GACGGGCTGGACTATCGGGACGTGCTA | -1.25 |
| TTAGGACTGCTTTGCCTTTAGTGCTAG | 0.285 |
| GACGATTTCAGTTTGGAGACGTGCTAG | 2.22 |
| ATCCATCTCAAGTAGCCTAGCGTGCTA | 0.587 |
| TGGGCTGTGGGTTTGAGTCTGTGCTAG | -0.991 |
| TTAGAACTGGGGTTACGATTAGTGCTA | -0.0506 |
| TTAGGTATCCCACTGCTTTAGTGCTAG | 0.829 |
| TTAGAACTGAGTTTCGAGTAGTGCTAG | 1.78 |
| TCACTTTTCACTTTCTTACTGTGCTAG | 6.29 |
| GACGAAATGGGGTTTCGAGACGTGCTA | 1.52 |
| GACGGTATGCTTATCCTGACGTGCTAG | 0.415 |

Study 3
Target: Sal-like protein 4, full length isoform A (SALL4, Homo sapiens, UniProt Q9UJQ4, residues 1-1053)
Sequence of UniProt Q9UJQ4 (whole entry, looked up): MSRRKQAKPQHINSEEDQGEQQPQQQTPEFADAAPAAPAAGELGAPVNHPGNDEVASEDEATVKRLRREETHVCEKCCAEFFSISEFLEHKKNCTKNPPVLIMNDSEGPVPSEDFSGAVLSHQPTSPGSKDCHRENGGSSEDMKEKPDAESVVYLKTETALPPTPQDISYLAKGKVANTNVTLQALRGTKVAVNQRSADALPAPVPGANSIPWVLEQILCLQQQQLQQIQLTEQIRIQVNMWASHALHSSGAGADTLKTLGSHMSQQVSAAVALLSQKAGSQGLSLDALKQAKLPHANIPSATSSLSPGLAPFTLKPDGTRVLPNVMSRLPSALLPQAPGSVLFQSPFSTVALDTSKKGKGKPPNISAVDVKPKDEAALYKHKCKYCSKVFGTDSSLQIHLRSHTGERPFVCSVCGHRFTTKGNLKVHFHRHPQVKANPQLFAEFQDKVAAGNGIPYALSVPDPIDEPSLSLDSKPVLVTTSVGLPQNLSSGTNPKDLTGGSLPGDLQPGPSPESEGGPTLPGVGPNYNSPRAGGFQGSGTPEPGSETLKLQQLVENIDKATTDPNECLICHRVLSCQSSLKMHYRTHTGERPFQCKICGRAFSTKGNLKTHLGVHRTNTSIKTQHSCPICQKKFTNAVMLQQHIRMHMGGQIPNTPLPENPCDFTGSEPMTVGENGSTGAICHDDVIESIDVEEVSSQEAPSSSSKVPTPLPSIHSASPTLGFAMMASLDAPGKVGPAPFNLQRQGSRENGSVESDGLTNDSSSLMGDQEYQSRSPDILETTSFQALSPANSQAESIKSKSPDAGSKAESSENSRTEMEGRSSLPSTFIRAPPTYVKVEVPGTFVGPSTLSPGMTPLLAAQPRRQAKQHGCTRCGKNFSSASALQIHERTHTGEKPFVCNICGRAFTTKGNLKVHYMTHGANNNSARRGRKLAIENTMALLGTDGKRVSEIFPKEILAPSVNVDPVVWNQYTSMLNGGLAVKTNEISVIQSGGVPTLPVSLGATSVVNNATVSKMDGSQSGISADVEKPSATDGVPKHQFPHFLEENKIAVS
Method: universal PBM
Molecule type: double-stranded DNA, one strand shown
Matrix: in vitro
Concentration: 600 nM
Notes: 8-mer, flanks averaged, mean of replicates
Reading: higher = stronger binding
| Strand | E-score |
| --- | --- |
| GACTCCAA | -0.142 |
| AGTTAAAC | 0.0518 |
| CCTGATAC | 0.136 |
| CATCTCCA | -0.0993 |
| ACAATCAT | 0.234 |
| CAACTTAG | 0.0253 |
| TACTGCAA | 0.119 |
| CATCCCGA | -0.136 |
| GAATAGAA | 0.181 |
| GTTGACAA | 0.11 |
| CTTTACTA | 0.204 |
| TCTCTGCA | -0.0162 |
| ACGGATGA | -0.0983 |
| TCCGTACA | -0.00116 |
| GGTGCTAA | 0.00297 |
| CCTGGGAC | -0.317 |
| ACAAGCCC | -0.243 |
| CAGGGGAC | -0.253 |
| TACTCGGA | 0.161 |
| AACATGAC | 0.0314 |
| AATAGTTG | 0.307 |
| ACCATGAA | 0.0912 |
| AATCGTAT | 0.271 |
| AGATAGAC | 0.0197 |
| CCCGAAAG | -0.113 |

Study 4
Target: RNA binding protein fox-1 homolog 2, RRM domain, GST-SBP tag (RBFOX2, Homo sapiens, UniProt O43251-10, residues 100-194)
Method: RNA Bind-n-Seq
Molecule type: RNA
Matrix: in vitro
Concentration: 365 nM
Notes: natural RNA segment, single round, ends assumed
Relative to: no-protein control
Reading: higher = stronger binding
Residues (chain): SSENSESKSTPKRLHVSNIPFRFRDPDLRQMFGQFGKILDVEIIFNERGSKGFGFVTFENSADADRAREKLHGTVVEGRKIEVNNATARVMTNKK
| Strand | RBNS enrichment (R) |
| --- | --- |
| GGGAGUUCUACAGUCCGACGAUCGUACCUGGAAAUGUGAAUCUGGAUUCUUACCUGUGUCAUCAGAGUAGUAAUGGAUUCAGUACUCCUCAACUCCUAAUGAUUGAGAAGAAGGCAAACGAUAAAGAAAUCCCUGGAAUUCUCGGGUGCCAA | 0.413 |
| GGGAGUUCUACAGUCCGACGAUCGACUGUUUUAUAAAGAAAUGGAAAAAAGUGAAAUAAAAAAUAUGUUGAAUCAGAUUUUUUAAAAGGGGUAUUUGUUUUUUUAUAACAGGUAUUGAAACAAGUUAACUUGCUGGAAUUCUCGGGUGCCAA | 0.67 |
| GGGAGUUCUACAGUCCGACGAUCGUGCAGAGGUCUCCAGUGCCGAGCACAGGCACCUGCCAUCAGUAGUUCCUGUGUCAUCUUCACAUCUAGCAGAGCACGGAUGUGUUUGCAUGCUGUGCUCUUGGAGCUUGUGGAAUUCUCGGGUGCCAA | 0.458 |
| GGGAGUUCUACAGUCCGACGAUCCACAUAGUGAGUCCAAGGUCGGCCUGGACUGCACGAGAGUCUGUCUAGGAAUGCAGUUAGUAAAAGCCUGGCGUCUACUGCAGAGUAUGUAUACUUGGUGGUAGAGGGCUUGGAAUUCUCGGGUGCCAA | 0.442 |
| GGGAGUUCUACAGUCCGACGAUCUUGUAUGUGUUCUCCCUUCCUUGAAUCUCUUGUAUGGCCCUAGAACUUUGGUCAGGUGUGUUUAUGGUGACAUGAUUUCUGUGGUUCCUGCCUUACAGCAGGCAGGUUGUUGGAAUUCUCGGGUGCCAA | 1.83 |
| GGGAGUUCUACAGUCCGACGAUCGACUGAGUUAUGGGAGAAGGGGACAUAUUUGUGGCCAAAAUGAUACUAACCAAAGGGGCUUCCUUGUCAGGGCCUGGUGGAGUUGGUGGGUCAUCGGGGCUCACUGCCUCUGGAAUUCUCGGGUGCCAA | 0.695 |
| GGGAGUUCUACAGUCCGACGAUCCUGGGUAUGAAUUCCCUGACACACAUUCAUGUCAACAUAUGUAGCAAAUUUUGUGAAAACAUAACAAUUUGAAGCUUCUGUAAUUUUGAGCACUGCUCUAACAACAAGCAUGGAAUUCUCGGGUGCCAA | 0.74 |
| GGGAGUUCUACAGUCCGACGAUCUGUUCUCUUCCUCACCUGAAAUUAUGCUUCCUAAAAUCUCAAGCCAAACUCAAAGAAUGGGGUGGUGGGGGGCACCCUGUGAGGUGGCCCCUGAGAGGUGGGGGCCUCUCUGGAAUUCUCGGGUGCCAA | 0.338 |
| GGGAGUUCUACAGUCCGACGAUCAAGCUCUUUGACUUUGACAAGAGGUUCUAGUUAAAGCACACACUUAAUCUACAGCCACUCUCUACCUUGAGUCUAUCUAUGGUCAGUUGAAGAGUUUUAGAAGAAAUUCUUGGAAUUCUCGGGUGCCAA | 0.291 |
| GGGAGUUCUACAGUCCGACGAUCAAAACCAAGUAUCACACUUUAAUGUACAUGGGCCGCACCAUAAUGAGAUGUGAGCCUUGUGCAUGUGGGGGAGGAGGGAGAGAGAUGUACUUUUUAAAUCAUGUUCCCCCUGGAAUUCUCGGGUGCCAA | 1.33 |
| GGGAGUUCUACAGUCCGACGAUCCAUAUUUGCUCUAGAAGAAAAAAAAAAAAGGAGGGGAAAUGCAUUUUCCCCAGAGAUAAAGGCUGCCAUUUUGGGGGUCUGUACUUAUGGCCUGAAAAUAUUUGUGAUCCUGGAAUUCUCGGGUGCCAA | 0.964 |
| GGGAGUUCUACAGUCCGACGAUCUCAUGUAGCCCAGGCUGGCCUUGAGCUCUGUAUGUAUCUGAGGCUAGUCCUGAAUUCCUAACUCUCCUGAGUGCUGAGAUUGUCAAGCACUGCAUUAAACCUGGCUGGUCUGGAAUUCUCGGGUGCCAA | 1.17 |

Study 5
Target: CCND1, cyclin fold, Cln2 fusion (human)
Method: yeast growth competition, sequencing
Matrix: yeast
Notes: weak parent motif
Relative to: not given
Reading: higher = stronger binding
Starting sequence: BRCA2 docking peptide (human); PSIKRNLLNEFDR; partner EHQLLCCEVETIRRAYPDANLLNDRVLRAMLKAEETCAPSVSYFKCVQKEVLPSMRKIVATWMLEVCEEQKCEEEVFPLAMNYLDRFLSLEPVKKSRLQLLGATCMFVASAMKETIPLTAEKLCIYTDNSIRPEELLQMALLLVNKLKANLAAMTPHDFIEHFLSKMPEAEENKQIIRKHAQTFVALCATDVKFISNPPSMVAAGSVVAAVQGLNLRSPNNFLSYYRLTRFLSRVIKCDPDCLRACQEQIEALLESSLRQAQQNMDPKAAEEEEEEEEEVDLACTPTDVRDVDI
| Change | normalised enrichment score |
| --- | --- |
| HSIKRNLLNEFDR [P1H] | 0.831 |
| PSIKRDLLNEFDR [N6D] | -0.00244 |
| PSIKRNLLNNFDR [E10N] | 0.0749 |
| PGIKRNLLNEFDR [S2G] | 0.136 |
| PSDKRNLLNEFDR [I3D] | -0.642 |
| PWIKRNLLNEFDR [S2W] | 0.0859 |
| PSIKRNLVNEFDR [L8V] | 0.579 |
| PSIKRNLLNEFDF [R13F] | 0.541 |
| PSIKRNLLNEEDR [F11E] | -0.3 |
| PSIKRNLLNPFDR [E10P] | 0.338 |
| WSIKRNLLNEFDR [P1W] | 1.15 |
| PSIKRCLLNEFDR [N6C] | 0.204 |
| PSIKRNLLNEFIR [D12I] | -0.621 |
| PSICRNLLNEFDR [K4C] | 2.65 |
| PSIKRNLLNEFLR [D12L] | -0.0839 |
| TSIKRNLLNEFDR [P1T] | 0.46 |
| PQIKRNLLNEFDR [S2Q] | 0.644 |
| PSIKANLLNEFDR [R5A] | 0.349 |

Excerpt of the above (study 1):
| Strand | E-score |
| --- | --- |
| GCACCTTA | 0.0611 |
| GACTTTCA | -0.0641 |
| ACACTATA | -0.0541 |
| AGACCCGC | 0.23 |
| TACCCTCA | -0.155 |
| ACGCATTC | 0.194 |
| ATGTGAAG | -0.124 |
| CTAGAGGC | -0.00526 |
| ACCGGCGG | 0.335 |
| AAGGGCGT | 0.166 |
| CGAAGACG | 0.113 |
| GTCGCTCA | 0.0493 |
| GTGGTCTA | -0.129 |
